Results pooled from the literature.
Each numbered part is a random draw from the data of one study; scales do not carry over between parts. Substitutions count along the parent as printed.

Set 1
Target: Ras GTPase-activating protein-binding protein 1, C-terminal RGG region (G3BP1, Homo sapiens, UniProt Q13283)
UniProt Q13283, sequence (whole entry, looked up): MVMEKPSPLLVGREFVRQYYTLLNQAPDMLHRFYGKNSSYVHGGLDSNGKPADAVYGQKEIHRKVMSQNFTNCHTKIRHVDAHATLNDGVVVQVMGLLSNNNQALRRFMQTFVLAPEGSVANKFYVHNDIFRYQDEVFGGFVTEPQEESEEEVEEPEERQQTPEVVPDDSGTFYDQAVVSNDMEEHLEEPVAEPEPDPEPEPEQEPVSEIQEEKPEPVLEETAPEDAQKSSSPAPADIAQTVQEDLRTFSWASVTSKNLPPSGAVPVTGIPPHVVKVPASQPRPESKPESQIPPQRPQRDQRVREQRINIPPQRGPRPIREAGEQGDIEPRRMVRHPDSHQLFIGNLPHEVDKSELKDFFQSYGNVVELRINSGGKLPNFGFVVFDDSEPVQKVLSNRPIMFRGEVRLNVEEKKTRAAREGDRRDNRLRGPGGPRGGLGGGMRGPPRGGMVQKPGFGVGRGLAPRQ
Method: RNA Bind-n-Seq
Form: RNA
Matrix: in vitro
Concentration: 1 µM
Notes: whole 134-nt RNA, ends assumed
Added: 150 mM KCl
Baseline: input library
Direction: higher = stronger binding
Quantity: log2 enrichment
Constant ends, left off below: GGGAGUUCUACAGUCCGACGAUC … UGGAAUUCUCGGGUGUCAAGG
Strand = CAAGUCCUGUGCUACACAUCGUAUGUACCGAAUCGGGGUUUGGGUUUGGGGUUUGGAAAGUAUUAUGUUACGCCGUUCGGAUCUGCACUU; result = -1.05
Strand = CCUGUGCUACACAUCGUAUGUACCGAAUCAAACCCCCAAAUUUUUUUAAACCCCCCCAAAAAAGUAUUAUGUUACGCCGUUCGGAUCUGC; result = -0.898
Strand = GAAGGAAGUAAAAACAAAUGGAAAUGCUUCGGAUAGUGGCAGGGGUGGGGGUUGCUAAGGAAAGGGUGGGAUGGGAGUGGGUAAAGAGUU; result = 1.7
Strand = UUCCAACAGUUAUGGGAUCCCAGAACCUGCUCAUGCAUACGCUCAACCUCAGACCACAACUCCUCUACCUGCAGUUUCCGGUUCUCCUGG; result = -0.16
Strand = GUCCUGUGCUACACAUCGUAUGUACCGAAUCGGGAAAAAAAGGGUUUGGGUUUUUGGGAAAGUAUUAUGUUACGCCGUUCGGAUCUGCAC; result = 0.0154
Strand = UUGACCUAGAGGAUGAGACCAUUGAUGCCGAGGUCAUGAACUCUCUAGCAGUUACUAUGGAUGACUUCCGGGUAAGGACCACACCCGUGC; result = -2.35
Strand = CACAGACAACACGCACCCCCACAGACACAGAGGGAAGGGGUUGGGAUGGGGACAGGGUGCACAGCAGGGCGGGGUAGGACCCCAGCCCCU; result = -0.0632
Strand = CCUCAAGUCCUGUGCUACACAUCGUAUGUACCGAAUCGGUGGUUUGGUUUGGAAAGUAUUAUGUUACGCCGUUCGGAUCUGCACUUCCAG; result = -1.02
Strand = UAACUUUAGAGGAGUAUCUGAUGGAUAUGGCAGUGGACGUGGAUUUGGGGAUGGCUAUAAUGGGUAUGGAGGAGGACCUGGAGGUGGCAA; result = -0.558

Set 2
Target: ATF5, bZIP domain (human)
Method: DHFR protein complementation
Matrix: yeast
Notes: single substitutions, most at no-binding floor
Baseline: wild-type JUN-FOS pair
Direction: higher = stronger binding
Quantity: binding fitness
Starting sequence: JUN, bZIP domain (human); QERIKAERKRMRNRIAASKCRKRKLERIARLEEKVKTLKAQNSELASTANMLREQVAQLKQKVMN; partner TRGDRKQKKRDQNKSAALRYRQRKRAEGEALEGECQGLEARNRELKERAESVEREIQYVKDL
Substitution = L45A; result = -1.51 natural log
Substitution = E33Q; result = -1.6 natural log
Substitution = I28S; result = -1.48 natural log
Substitution = A29F; result = -1.46 natural log
Substitution = T48D; result = -1.47 natural log
Substitution = T48M; result = -1.55 natural log
Substitution = R30T; result = -1.41 natural log
Substitution = K39W; result = -1.52 natural log
Substitution = L59G; result = -1.51 natural log
Substitution = S43A; result = -1.59 natural log
Substitution = R53I; result = -1.42 natural log
Substitution = E32P; result = -1.52 natural log
Substitution = M51A; result = -1.49 natural log
Substitution = R53W; result = -1.47 natural log
Substitution = T37E; result = -1.33 natural log
Substitution = V35T; result = -1.43 natural log
Substitution = A40H; result = -1.37 natural log

Set 3
Target: ABI1, truncated, D143A, DHFR fusion (Arabidopsis thaliana)
Method: DHFR PCA, deep sequencing
Matrix: yeast
Notes: methotrexate growth selection, single substitutions
Added: (+)-ABA 0.11 µM
Baseline: wild-type fitted maximum
Direction: higher = stronger binding
Quantity: relative binding score
Starting sequence: PYL1, truncated, DHFR fusion (Arabidopsis thaliana); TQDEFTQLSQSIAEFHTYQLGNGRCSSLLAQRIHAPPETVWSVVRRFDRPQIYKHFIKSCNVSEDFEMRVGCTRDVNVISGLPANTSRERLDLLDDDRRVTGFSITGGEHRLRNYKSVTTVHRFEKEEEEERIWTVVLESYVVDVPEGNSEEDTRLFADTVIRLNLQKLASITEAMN; partner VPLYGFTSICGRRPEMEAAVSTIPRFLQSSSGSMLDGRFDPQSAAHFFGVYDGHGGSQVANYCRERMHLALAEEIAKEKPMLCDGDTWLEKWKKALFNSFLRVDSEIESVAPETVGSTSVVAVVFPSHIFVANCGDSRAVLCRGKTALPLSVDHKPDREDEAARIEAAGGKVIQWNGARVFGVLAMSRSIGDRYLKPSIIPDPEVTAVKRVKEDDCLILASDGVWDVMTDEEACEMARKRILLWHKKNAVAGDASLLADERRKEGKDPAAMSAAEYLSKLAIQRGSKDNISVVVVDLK
Substitution = V76Y; result = 0.664%
Substitution = E127K; result = 52.4%
Substitution = E127N; result = 49.2%
Substitution = K116I; result = 1.08%
Substitution = C72Y; result = -2.37%
Substitution = L91W; result = 3.82%
Substitution = D92S; result = -1.23%
Substitution = T106C; result = 14.1%
Substitution = R113P; result = 76.5%
Substitution = A175F; result = -5.16%
Substitution = S150G; result = 5.54%
Substitution = R46H; result = 11.9%
Substitution = K168I; result = -7.19%
Substitution = E14D; result = 17.1%
Substitution = K54D; result = 1.32%
Substitution = H122M; result = 0.12%
Substitution = P50S; result = -2.08%
Substitution = L8A; result = 10.9%
Substitution = R32C; result = 18.2%
Substitution = V142F; result = 0.205%
Substitution = V136P; result = 1.99%
Substitution = E131M; result = 37.7%
Substitution = V143P; result = 20.1%
Substitution = L28Q; result = 2.96%
Substitution = V44N; result = -1.69%

Set 4
Target: Max dimerization protein 1, bHLH-zipper, MAX partner unstated (MXD1, Homo sapiens, UniProt Q05195, residues 56-136)
Method: protein-binding microarray
Form: double-stranded DNA, one strand shown
Matrix: in vitro
Concentration: not given
Notes: k-mer, scored over probes, only values ≥0.25
Direction: higher = stronger binding
Quantity: E-score
Residues (chain): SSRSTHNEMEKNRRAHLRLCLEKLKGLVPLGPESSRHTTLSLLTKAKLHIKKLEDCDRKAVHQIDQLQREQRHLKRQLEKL
Strand = ACTCGTGC; result = 0.404
Strand = AACGCACA; result = 0.301
Strand = GGCATGCA; result = 0.302
Strand = CGTGTCTC; result = 0.317
Strand = GTGGGACA; result = 0.312
Strand = GGGCACAC; result = 0.261
Strand = AGCTCGTG; result = 0.258
Strand = ACATGCGA; result = 0.393
Strand = CAGGTGGC; result = 0.281
Strand = ACGTGGTA; result = 0.419

Set 5
Target: CCNA2, cyclin fold, Cln2 fusion (human)
Method: yeast growth competition, sequencing
Matrix: yeast
Notes: strong parent motif
Baseline: not given
Direction: higher = stronger binding
Quantity: normalised enrichment score
Starting sequence: CDC6 docking peptide (human); TLKGRRLVFDNQL; partner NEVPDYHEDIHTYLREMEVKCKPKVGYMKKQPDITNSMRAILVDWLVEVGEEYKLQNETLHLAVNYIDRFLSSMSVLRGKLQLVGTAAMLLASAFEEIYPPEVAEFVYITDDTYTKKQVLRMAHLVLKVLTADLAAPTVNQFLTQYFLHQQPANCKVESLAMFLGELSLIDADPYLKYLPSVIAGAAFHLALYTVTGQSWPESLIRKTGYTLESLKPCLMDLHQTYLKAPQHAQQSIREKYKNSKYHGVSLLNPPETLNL
Substitution = TLKGRRLVFDVQL [N11V]; result = 2.63
Substitution = TLKGRRLVFDNRL [Q12R]; result = 2.16
Substitution = TLTGRRLVFDNQL [K3T]; result = 2.34
Substitution = TLKARRLVFDNQL [G4A]; result = 3.64
Substitution = TLKGRRLVFDNQE [L13E]; result = 3.22
Substitution = TLKGRRLVFDNQN [L13N]; result = 2.8
Substitution = LLKGRRLVFDNQL [T1L]; result = 2.61
Substitution = TIKGRRLVFDNQL [L2I]; result = 2.1
Substitution = TLKGMRLVFDNQL [R5M]; result = 1.22
Substitution = TLKGRRTVFDNQL [L7T]; result = 0.498
Substitution = TLFGRRLVFDNQL [K3F]; result = 1.98
Substitution = TLKGRRLVFDNQS [L13S]; result = 3.44
Substitution = RLKGRRLVFDNQL [T1R]; result = 3.83
Substitution = NLKGRRLVFDNQL [T1N]; result = 3.03

For quick reference, copied from above (set 5):
Substitution = TLKGRRLVFDVQL [N11V]; result = 2.63
Substitution = TLKGRRLVFDNRL [Q12R]; result = 2.16
Substitution = TLTGRRLVFDNQL [K3T]; result = 2.34
Substitution = TLKARRLVFDNQL [G4A]; result = 3.64
Substitution = TLKGRRLVFDNQE [L13E]; result = 3.22
Substitution = TLKGRRLVFDNQN [L13N]; result = 2.8
Substitution = LLKGRRLVFDNQL [T1L]; result = 2.61
Substitution = TIKGRRLVFDNQL [L2I]; result = 2.1
Substitution = TLKGMRLVFDNQL [R5M]; result = 1.22
Substitution = TLKGRRTVFDNQL [L7T]; result = 0.498
Substitution = TLFGRRLVFDNQL [K3F]; result = 1.98
Substitution = TLKGRRLVFDNQS [L13S]; result = 3.44
